Experimental data from different studies.
Numbered parts are unrelated; each lists some results of a single study. Positions count from the first letter of the parent shown.

Block 1 — technique: universal PBM; molecule type: double-stranded DNA, one strand shown; medium: in vitro; tested at: not given; direction: higher = stronger binding; endpoint: E-score
Target: Sal-like protein 4, full length isoform B (SALL4, Homo sapiens, UniProt Q9UJQ4-2, residues 1-616)
Setting: 8-mer, flanks averaged, mean of replicates
TCACGCAA: 0.147
CAGAGTCA: -0.157
AGACGAGG: -0.269
GCGTTTCA: -0.0602
AGAGAGGA: -0.112
CAATGTAA: 0.212
AAATAAGA: 0.306
CATGCGTA: 0.156
CGGGCTCC: -0.34
AACATTTC: 0.198
CTATAGGA: 0.0961
GCCAGAAC: -0.178
AGGGGGAG: -0.157
TAGAGTAA: 0.15
GCCGCGTA: -0.156
AACTCCAG: -0.2
AACGGGAC: -0.292
ACTTGACA: 0.0867
CTAGGGAA: 0.00259
GGCGTTGA: -0.157
CGATCGGA: -0.144
ATTGATGC: 0.12
AATCGCAA: -0.00452
GAATTGAA: 0.191
CGGTGTTC: -0.225

Block 2 — technique: RNA Bind-n-Seq; molecule type: RNA; medium: in vitro; tested at: not given; reference: input RNA pool; direction: higher = stronger binding; endpoint: bound/input enrichment
Target: RING finger protein unkempt homolog, zinc fingers 1-6, GST-SBP tag (UNK, Homo sapiens, UniProt Q9C0B0, residues 30-357)
Sequence of UniProt Q9C0B0 (30-357, looked up): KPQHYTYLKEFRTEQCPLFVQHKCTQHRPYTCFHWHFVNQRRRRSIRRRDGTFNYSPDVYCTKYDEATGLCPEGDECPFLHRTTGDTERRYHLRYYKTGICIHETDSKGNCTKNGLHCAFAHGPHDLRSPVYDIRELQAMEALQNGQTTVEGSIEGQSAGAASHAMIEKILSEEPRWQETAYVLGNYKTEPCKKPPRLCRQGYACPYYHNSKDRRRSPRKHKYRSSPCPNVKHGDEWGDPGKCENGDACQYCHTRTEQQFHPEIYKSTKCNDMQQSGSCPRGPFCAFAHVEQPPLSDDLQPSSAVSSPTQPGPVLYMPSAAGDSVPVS
Setting: RNA with constant flanks, human and mouse sites, ends assumed
Constant ends, left off below: GGGAGUUCUACAGUCCGACGAUC … CAACAGAGGAUUGAGCAUCA
GCCAGCAAGCCGCAGACCAUUCAAGAAUCAACAGGUGGUAUAGUCGAAGUUUUACAUAAGGUAGAUUCAGAAGGAAUCUCACCAAACCGUACCAGUCACGCGGCACCUGCAGCCACGUCA: 0.25 ratio
AGCCGUGAGGGAUACAGCAGUUUGGUCAAUAUUGUCUUAACAUGCUUCAAAUAAAUCAGAUGUUCUCAGUGCAGCUGAGUCUUGGUGAGCAGACAUGGGAAUCCGAAGGCAGCAGUAUAA: 0.257 ratio
AAACGGCAGGAAGACCCUGACCACUGUCCAAGGGAUCGCUGAUGAUUACGAUAAAAAGAAACUAGUGAAGGCGUUUAAGAAGAAGUUUGCCUGCAAUGGUACUGUAAUUGAGCAUCCAGA: 0.124 ratio
ACAUGCCAAUUGAGUGAAAAAUUUAUCAAAGCUGCCAUUGGCUGUGGUAUUGUAGAAAGCAUACUAAACUGGGUGAAGUUUAAGGCCCAAGUCCAGUUAAACAAGAAGUGUUCAGCUGUA: 0.196 ratio
CACAGAGCAGCACCUACCCCCUCCUCCUUUCCACACCUGCAAACUCUUUUACUUGGGCUGAAUAUUUAGUGUAAUUACAUCUCAGCUUUGAGGGCUCCUGUGGCAAAUUCCCGGAUUAAA: 1.13 ratio
UCCUUUAUGUAUUCUCUUCUACAAUACAACACAUUGAAACUGUAUUUACUUGUUAUGUUGUAAUAUUUUGCUGCUGAAUUUGGGGCUACUUAUAUUCUGCAGAAAAUUAAUUGAAAUACC: 0.235 ratio
CGGCCAUCAUCUCCUGUCGCAGUUGCAGCUCUUGCUCAUCCUCCCUCUGGGCUCCAUCCAGCACCAUCUACUGCCCCGGGUCCCCAUGCUCCAUUAAUGCCUCCAUCUCCUCCAUCACAA: 0.538 ratio
GUAGCCUUAUAUGAAGAACCAGAGAAGCCCACCAGUGCUCUGGAUUUUUUAAAGCAUCACUUAGGAGCUGCUACCCCGGAAAACCCAGAAAUAGAGCUGCUUCGCCUAGAAUUGGCAGAA: 0.781 ratio
CCUCCGCCCUCACCGUUGCCAUUUCCGACGCAAGCUAUCCUUCCUCCGGCACCUUCCAGCUACUUCUCUCAUCCAACAAUCAGAUAUCCUCCUCACCUGAAUCCUCAGGAUACUCUGAAG: 0.454 ratio
CCCAAGCUCAAGCUCUGGAUGGCGGCCAUGCAGCAAGACCCUGUGGCAUCCUCUCACAAAAUUGAUGCCAAGACCUACCGCGAGUACUUAAAUCUCUACCUACAGGACAGCCCCGAGGCC: 0.141 ratio
AGGUUACUGAUGCAUCACAUCAGAGAUUGUUUACCAGAGUUGAAAACAAGAAUAAAUGUUCUAGCUGCUCAGUAUCAGUCUCUUCUAAAUAGCUACGGUGAACCCGUGGAUGAUAAAAGU: 0.222 ratio

Block 3 — target: CCNA1, cyclin fold, Cln2 fusion (human); technique: yeast growth competition, sequencing; medium: yeast; setting: weak parent motif; reference: not given; direction: higher = stronger binding; endpoint: normalised enrichment score
Starting sequence: CDKN1B docking peptide (human); PSACRNLFGPVDH
PSACRNLFGWVDH [P10W]: 0.405
PSACRNRFGPVDH [L7R]: 0.201
PSACRNLFGPCDH [V11C]: 0.202
PSACRMLFGPVDH [N6M]: 0.25
PSACRNLFGCVDH [P10C]: 0.204
PSACRNLFGLVDH [P10L]: 0.437
PSADRNLFGPVDH [C4D]: 0.283
PSACRNLLGPVDH [F8L]: 0.308
PSACRNLFPPVDH [G9P]: 0.0912
PSACRNLFGKVDH [P10K]: 0.312
PSACRNLFIPVDH [G9I]: 0.291
PSACRWLFGPVDH [N6W]: 0.326
PSACRNLFGGVDH [P10G]: 0.348
PSACYNLFGPVDH [R5Y]: 0.458
PSACRNLFWPVDH [G9W]: 0.293
PSACRDLFGPVDH [N6D]: 0.235
PSRCRNLFGPVDH [A3R]: 0.348
PSACRNYFGPVDH [L7Y]: 0.277
PSACRNLFGPVDT [H13T]: 0.331

Block 4 — target: FOSL1, bZIP domain (human); technique: DHFR protein complementation; medium: yeast; reference: wild-type JUN-FOS pair; direction: higher = stronger binding; endpoint: binding fitness
Setting: single substitutions, most at no-binding floor
Starting sequence: JUN, bZIP domain (human); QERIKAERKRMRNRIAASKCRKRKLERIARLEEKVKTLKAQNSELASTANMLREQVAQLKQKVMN; partner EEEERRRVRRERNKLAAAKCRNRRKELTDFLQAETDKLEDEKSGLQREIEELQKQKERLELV
Q55T: -0.543 natural log
E44Q: -0.426 natural log
E33K: -0.727 natural log
E32H: -0.671 natural log
K34I: -0.791 natural log
V56M: -1.18 natural log
V56L: -0.887 natural log
E33D: -0.451 natural log
A40E: -0.367 natural log
L52M: -1.01 natural log
Q55M: -0.608 natural log
I28R: -0.626 natural log
K39Q: -0.689 natural log
T37Y: -0.578 natural log
K36H: -0.601 natural log
S43C: -0.503 natural log

Block 5 — technique: DHFR PCA, deep sequencing; medium: yeast; together with: (+)-ABA 2500 µM; reference: wild-type fitted maximum; direction: higher = stronger binding; endpoint: relative binding score
Target: ABI1, truncated, D143A, DHFR fusion (Arabidopsis thaliana)
Setting: methotrexate growth selection, single substitutions
Starting sequence: PYL1, truncated, DHFR fusion (Arabidopsis thaliana); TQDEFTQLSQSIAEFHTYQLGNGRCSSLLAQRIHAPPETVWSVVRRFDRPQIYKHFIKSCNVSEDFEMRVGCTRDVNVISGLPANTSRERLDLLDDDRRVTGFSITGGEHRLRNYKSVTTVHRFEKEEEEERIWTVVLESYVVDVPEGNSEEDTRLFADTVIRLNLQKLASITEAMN
V118N: 94.8%
L156W: 93%
V44F: 36.6%
I52Y: 93.8%
A175D: 95.9%
L112N: 6.05%
I105Y: 14.2%
G108H: 63.9%
H55K: 98.2%
F103Q: 14%
G21A: 98.3%
V40K: 0.529%
D75E: 97%
L8Y: 89.4%
V70N: 76.2%
Y141C: 51.3%
R132V: 100%
T86K: 94.2%
D65V: 93.8%
R24T: 100%
Y115P: -2.05%
L91Y: 4.68%
K116Q: 106%

Block 6 — technique: protein binding microarray; molecule type: double-stranded DNA, one strand shown; medium: in vitro; tested at: not given; reference: not given; direction: higher = stronger binding; endpoint: E-score
Target: Histone acetyltransferase KAT6A, winged helix 1, GST fusion (KAT6A, Homo sapiens, UniProt Q92794, residues 1-85)
Setting: 8-mer, flanks averaged, mean of 2 arrays, mostly near background
Construct (chain): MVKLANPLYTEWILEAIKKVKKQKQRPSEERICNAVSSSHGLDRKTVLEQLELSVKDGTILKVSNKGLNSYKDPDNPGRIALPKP
ATACGGGG: 0.223
TAGTCTCA: -0.182
GCTATTAC: 0.176
AGCATCAC: -0.198
CAGGGAGG: -0.143
CACGTAGA: -0.236
ACTAAATG: -0.151
AGGGATAT: -0.212
CCCGCATA: 0.36
GCGTGAGC: 0.327
ATTCCCCG: 0.182
ACACCATC: -0.232
AAACCAGT: -0.182
CTGTGACC: 0.0236
AAATGCTT: -0.0832
ACCTACTC: -0.154
ACTCGTTG: -0.235
TATGATCA: -0.129
AGTGCATA: -0.0987
CCACAGTA: -0.135
AAAGACTG: -0.125
AACTTCGT: -0.1
